# Measured values of several laboratories.
# Lines come from different studies, so protocols differ. Numbers after ± are the reported error.
Structure (SMILES),organism,assay,test system,setting,scale,endpoint,result
CCCCCc1ccc2c(c1O)C(c1ccc(OC)c(OC)c1OC)OC2=O (stereo not drawn),Naegleria fowleri,"parasite growth, resazurin",,48 h,,IC50,7.79 µM
COc1cc(/C=C/c2cc(/C=C/c3ccc(O)c(OC)c3)on2)ccc1O,Spodoptera frugiperda,"cell growth or viability, MTT",Sf9,"100 µM, 72 h",,inhibition,70.6%
CC(=O)c1c(O)c(C)c(O)c2c1OC1=CC(=O)/C3=C(/C)N[C@H](C(=O)O)CC1=CC=CC=C[C@@]2(C)C3=O,Candida tropicalis,microbial killing,,,,MFC,25.4 µM
COc1ccc(Nc2c(C#N)cnc3ccc(Cl)cc23)cc1,Trypanosoma cruzi,"parasite viability, resazurin","Y, trypomastigotes","24 h, heme-free medium",,IC50,> 100 µM
c1ccc(-c2nc(-c3ccc4ccccc4c3)c[nH]2)cc1,Schistosoma mansoni,,mature male and female worms,"50 µM, 96 h",,worm killing,0%
CC[C@H](C)[C@H](NC(=O)[C@H](CCCN)NC(=O)[C@H](CC(N)=O)NC(=O)[C@H](Cc1c[nH]c2ccccc12)NC(=O)[C@H](Cc1ccccc1)NC(=O)[C@H](CCCN)NC(=O)[C@H](CCCNC(=N)N)NC(=O)[C@H](CC(C)C)NC(=O)[C@H](Cc1c[nH]c2ccccc12)NC(=O)[C@H](CCCN)NC(=O)[C@H](CCCNC(=N)N)NC(=O)[C@H](CC(C)C)NC(=O)CNC(C)=O)C(=O)N[C@@H](CCCN)C(=O)N[C@@H](CCCNC(=N)N)C(N)=O,all bacteria tested,,,,,geometric mean MIC,4.42 µM
Cc1ccc2nc(-c3ccc(F)c(F)c3)c(CN3CCN(c4ccc(F)cc4)CC3)n2c1,Trypanosoma cruzi,,"3T3 host cells, Tulahuen beta-galactosidase",6 days,,EC50,1 µM
Fc1ccc2c(c1)c1nc3ccc(Br)cc3c-1cn2Cc1cn(-c2ccccc2I)nn1,Giardia duodenalis trophozoites,"UHPLC-Q-TOF-MS, refers to: C16 sphinganine",,"IC50, 0.111 h",baseline: 0.25% DMSO,fold change,6.83
CCC1(C)CCN(Cc2cc(N(C)C)c3c(c2O)C(=O)C2=C(O)[C@]4(O)C(=O)C(C(N)=O)=C(O)[C@@H](N(C)C)[C@@H]4C[C@@H]2C3)CC1,Streptococcus pneumoniae,,157E,with: mouse serum,baseline: no serum,MIC increase,≥ 2 dilutions
Cc1ccccc1-c1cn([C@@H]2O[C@H](CO)[C@@H](O)[C@H]2O)c2ncnc(N)c12,Trichomonas vaginalis,resorufin,"G3, metronidazole-sensitive","24 h + 2 h, 2% O2",,EC50,9 ± 0.31 µM
CN(C)c1cc(CNCC(N)=O)c(O)c2c1C[C@H]1C[C@H]3[C@H](N(C)C)C(O)=C(C(N)=O)C(=O)[C@@]3(O)C(O)=C1C2=O,Streptococcus pneumoniae,"microbial growth, broth dilution",,,,MIC,2 µg/mL
CC[C@@H](C)[C@@H](NC(=O)[C@@H](C)N)C(=O)N[C@H](CCCCN)C(=O)N[C@@H](C(=O)N[C@H](CCCNC(=N)N)C(=O)N[C@H](CCCCN)C(=O)N[C@H](CC(C)C)C(=O)N[C@H](Cc1ccccc1)C(=O)N[C@H](CCCCN)C(=O)N[C@H](CCCCN)C(=O)N[C@H](CC(C)C)C(=O)N[C@H](CC(C)C)C(=O)N[C@H](CCCNC(=N)N)C(N)=O)[C@H](C)CC,Escherichia coli,checkerboard,ATCC 25922,"unit not given, with: levofloxacin",lower = stronger synergy,FICI,0.375
CN(C)c1cc(CN2CCCCC2)c(O)c2c1C[C@H]1C[C@H]3[C@H](N(C)C)C(O)=C(C(N)=O)C(=O)[C@@]3(O)C(O)=C1C2=O,Streptococcus pneumoniae,,157E,50% mouse serum,,MIC,0.125 µg/mL
CNCc1ccc2c(c1)N(C(=O)OCc1ccccc1)[C@H](CNC(=N)N)[C@H]2NC(=O)C(=O)Nc1ccc(Cl)c(F)c1,amphotropic murine leukemia virus,viral infection,Cf2Th-CD4/CCR5,,,IC50,> 300 µM
CN(C)c1cc(CNC(C)(C)C)c(O)c2c1C[C@H]1C[C@H]3[C@H](N(C)C)C(O)=C(C(N)=O)C(=O)[C@@]3(O)C(O)=C1C2=O,Streptococcus pneumoniae,"microbial growth, broth dilution",,,,MIC,2 µg/mL
CCCn1ccc([C@H](C)[C@](O)(Cn2cnnn2)c2ccc(F)cc2F)n1,Candida tropicalis,"growth, broth microdilution",2718,"24 h, 30 °C, ≥50% inhibition",,MIC,0.5 µg/mL
CC(C)(C)NCC(SS(=O)(=O)O)c1ccccc1 (stereo not drawn),Schistosoma mansoni,,mice,"oral, 200 mg/kg once daily for 4 days, from 7 days post infection",,female worm burden reduction,95%
CC1(C)CC[C@]2(CO)CC[C@]3(C)C(=CC[C@@H]4[C@@]5(C)CCCNC(C)(C)[C@@H]5CC[C@]43C)[C@@H]2C1,Human cytomegalovirus,cytopathic effect,"HFF, AD169",,,EC90,> 1.2 µM
CCOC(=O)c1c(-c2ccc(F)c(F)c2)oc2ncccc12,Trypanosoma cruzi,,"3T3 host cells, Tulahuen beta-galactosidase",6 days,,EC50,10.9 µM
C[C@@H](c1ccn(Cc2ccc(Cl)cc2)n1)[C@](O)(Cn1cnnn1)c1ccc(F)cc1F,Candida tropicalis,"growth, broth microdilution",2718,"24 h, 30 °C, ≥50% inhibition",,MIC,< 0.008 µg/mL
Cc1ccc2nc(-c3ccccc3)c(CN3CCCC3)n2c1,Trypanosoma cruzi,,"3T3 host cells, Tulahuen beta-galactosidase",6 days,,EC50,> 20 µM
CN(C)c1cc(CNCC2CCCCC2)c(O)c2c1C[C@H]1C[C@H]3[C@H](N(C)C)C(O)=C(C(N)=O)C(=O)[C@@]3(O)C(O)=C1C2=O,Streptococcus pneumoniae,,"ATCC 700905, Tet M ribosome protection",,,MIC,< 0.06 µg/mL
Cc1ccc(-c2cn([C@@H]3O[C@H](CO)[C@@H](O)[C@H]3O)c3ncnc(N)c23)c(F)c1,Trichomonas vaginalis,resorufin,"G3, metronidazole-sensitive","24 h + 2 h, 2% O2",,EC50,0.23 ± 0.02 µM
CN(C)c1cc(CNCCC(C)(C)C)c(O)c2c1C[C@H]1C[C@H]3[C@H](N(C)C)C(O)=C(C(N)=O)C(=O)[C@@]3(O)C(O)=C1C2=O,Streptococcus pneumoniae,"microbial growth, broth dilution",,,,MIC,0.125 µg/mL
CC1(C)NCCC[C@]2(C)[C@H]3CC=C4[C@@H]5C[C@@](C)(CO)CC[C@]5(C)CC[C@@]4(C)[C@]3(C)CC[C@@H]12,Human cytomegalovirus,cytopathic effect,"HFF, AD169",,,EC90,> 6 µM
COc1ccc(-n2nc3c(=O)n(Cc4cccc(NC(C)=O)c4)nc(C)c3c2C)cc1,Zika virus,,"Vero, MR766",,baseline: CC50 over EC50,selectivity index,2.1
COc1ccc(C2OC(=O)c3ccc(C(C)C)c(O)c32)cc1OC (stereo not drawn),Naegleria fowleri,"parasite growth, resazurin",,48 h,,IC50,34.9 µM
CC(C)c1ccc(Cn2ccc([C@H](C)[C@](O)(Cn3cnnn3)c3ccc(F)cc3F)n2)cc1,Candida tropicalis,CLSI broth microdilution,2718,24 h,,MIC,< 0.008 µg/mL
CC[C@H](C)[C@H](NC(=O)[C@H](CCCCN)NC(=O)[C@H](CC(N)=O)NC(=O)[C@H](CC(C)C)NC(=O)[C@H](Cc1ccccc1)NC(=O)[C@H](CCCCN)NC(=O)[C@H](CCCCNC(=N)N)NC(=O)[C@H](CC(C)C)NC(=O)[C@H](CC(C)C)NC(=O)[C@H](CCCCN)NC(=O)[C@H](CCCCNC(=N)N)NC(=O)[C@H](CC(C)C)NC(=O)CNC(C)=O)C(=O)N[C@@H](CCCCN)C(=O)N[C@@H](CCCCNC(=N)N)C(N)=O,Gram-negative bacteria,,,,,geometric mean MIC,4.42 µM
Nc1ccn(C[C@@H](CO)OCP(=O)(O)OCCCS(=O)(=O)CCCCCCCCCCC2CCC2)c(=O)n1,JC polyomavirus,qPCR,"COS-7, MAD-4",,baseline: CC50 over EC50,selectivity index,13
